Published values pooled from the literature.
Each line is one published result; not all experiments were run side by side.
Cell line: Caco-2

For `CCc1nnc(-c2c(OC)cc(-c3cnc4cc(-c5cnn(C)c5)ccn34)cc2OC)o1`, the Papp was 2.5 ×10⁻⁶ cm/s.
For `CC(C)CC(NC(=O)OCc1ccccc1)C(=O)NC(CC1CCNC1=O)C(=O)C(=O)NC1CC1` (stereo not drawn), the CC50 was greater than 250 µM (5 (unit not given)).
`C#CCN(Cc1ccc2nc(C)[nH]c(=O)c2c1)C(=O)NC(CSCC(N)=O)c1cccc([N+](=O)[O-])c1` (stereo not drawn) has an efflux ratio of 65 (relative to: B-A over A-B).
Under “apparent permeability A to B”, `CCC1CC(c2ccc(C(=O)O)cc2C)=NN1c1ccc(C#N)c(Cl)c1` (stereo not drawn) is recorded as 9.7 ×10⁻⁶ cm/s (10 µM, 2 h).
`Cc1ccc(CNC(=O)c2ccn3c(-c4ccc(C#N)cc4)cnc3c2)cn1` gave an efflux ratio of 21.3.
`N#Cc1ccc(N2N=C3c4ccc(C(=O)O)cc4CCC3C2C2CCCC2)cc1Cl` (stereo not drawn) — result for “apparent permeability B to A”: 4.8 ×10⁻⁶ cm/s (10 µM, 2 h).
For `Cc1cc(-c2ccc3ccccc3c2)nnc1NCCN1CCN(C)CC1`, the Papp B-A was 17.2 ×10⁻⁶ cm/s (5 µM, 0.5 h).
`C[C@@H]1O[C@@H](O[C@@H]2[C@@H](O)[C@H](O)[C@@H](CO)O[C@H]2c2c(O)cc(O)c3c(=O)cc(-c4ccc(O)cc4)oc23)[C@H](O)[C@H](O)[C@H]1O` has a viability of 103% (CCK-8; 2.5 µM, 24 h).
`O=C(O)c1cccc(CP(=O)(O)O)n1` has an EC50 of greater than 250 µg/mL (metabolic activity, Alamar blue; 24 h, without 10% FBS).
